# Measurements gathered from unrelated publications.
# Each line is one published result; not all experiments were run side by side. Several values in a cell are separate wells, animals, samples, runs or records. Numbers after ± are the reported error.
# UCHL1: Ubiquitin carboxyl-terminal hydrolase isozyme L1 (UCHL1, Homo sapiens, UniProt P09936)
# ADRA2C: Alpha-2C adrenergic receptor (ADRA2C, Homo sapiens, UniProt P18825)
# Voltage-dependent P/Q-type calcium channel subunit alpha-1A: Voltage-dependent P/Q-type calcium channel subunit alpha-1A (Homo sapiens, UniProt O00555)
# TOP2B: DNA topoisomerase 2-beta (TOP2B, Homo sapiens, UniProt Q02880)
# Faah: Fatty-acid amide hydrolase 1 (Faah, Rattus norvegicus, UniProt P97612)
# T1: RNA aptamer C48U, 5'-triphosphate, 2',3'-cyclic phosphate; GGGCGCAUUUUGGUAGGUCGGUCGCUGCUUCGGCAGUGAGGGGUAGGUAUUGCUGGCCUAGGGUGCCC
Structure (SMILES),target,assay,test system,setting,how to read,measurement,value
N#CC(=Cc1ccc(O)c([N+](=O)[O-])c1)C(=O)NCc1ccccc1,UCHL1,"covalent, intact protein LC-MS",,12.5 µM,,labelling,35.9%
O=C(O)c1cccc(C(=O)O)n1,"Beta-lactamase L1 (Stenotrophomonas maltophilia, UniProt P52700)","enzyme activity, inhibitor",,together with: nitrocefin,,kon,1170 ± 500 M⁻¹ s⁻¹
COC(=O)c1cn(C)c2ccc(-c3cccnc3)cc12,"Hepatocyte nuclear factor 4-alpha (HNF4A, Homo sapiens, UniProt P41235)","reporter gene, Gal4 hybrid reporter",,10 µM,baseline: vehicle,activation,0.89 fold
Cc1cc(Oc2ncccc2CN2CCN(c3cccc(C)c3C)CC2)ccc1-c1c(C)c(=O)[nH]c(=O)n1C,ADRA2C,"binding, radioligand binding",,together with: [3H]rauwolscine,baseline: Ki alpha2A over Ki alpha2C,selectivity ratio,7
N#CC(=Cc1ccccc1)C(=O)Nc1ccc(N2CCCCC2)cc1,UCHL1,"covalent, intact protein LC-MS",,12.5 µM,,labelling,10.2%
[H]/N=C(/N)NCC(=O)O,"Sodium- and chloride-dependent taurine transporter (SLC6A6, Homo sapiens, UniProt P31641, G62A)","binding, microscale thermophoresis",,"7.81 µM, room temperature, together with: 50 nM labelled protein",higher = more binding,normalised MST signal,-0.0119
COc1ccc2c(c1)c(CC(=O)O)c(C)n2C(=O)c1ccc(Cl)cc1,Voltage-dependent P/Q-type calcium channel subunit alpha-1A,"ion current, antagonist, automated patch clamp",,,,IC30,> 30 µM
NS(=O)(=O)c1cccc(N2C(=O)C=CC2=O)c1,UCHL1,"covalent, intact protein LC-MS",,12.5 µM,,labelling,9.44%
Cn1ncc(S(=O)(=O)NC2CC(C)(C)Oc3ccc(F)cc32)c1C(=O)O (centres unmarked),malate dehydrogenase,"enzyme activity, inhibitor",,"200 µM, pH 7.0, 1% DMSO, aggregation counter-screen",,remaining activity,102%
CC(=C/C(=O)O)/C=C/C=C(\C)C1C=C2C(C)(C)CCCC2(C)O1 (centres unmarked),"Rhodopsin (RHO, Homo sapiens, UniProt P08100, T17M)","ER retention, immunostaining co-localization, measured: opsin with calnexin",COS-7 transfected T17M,0.05 µM,,Pearson correlation coefficient,0.72
CC(=O)N[C@@H](Cc1c[nH]c2ccccc12)C(=O)N[C@@H](CC(=O)O)C(=O)N1CCC[C@H]1C(=O)N1CCC[C@H]1C(=O)N[C@@H](CC(C)C)C(=O)N[C@@H](Cc1c[nH]cn1)C(=O)N[C@@H](CO)C(=O)N[C@H](C(=O)N[C@@H](C)C(N)=O)[C@@H](C)OP(=O)(O)O,"Serine/threonine-protein kinase PLK1 (PLK1, Homo sapiens, UniProt P53350)","polo-box domain binding, isothermal titration calorimetry",,"concentration not given, 25 °C",,binding entropy,-31.2 cal/(mol·K)
C=CC(=O)N1CCC(COCC(=O)N2CCN(c3nc(-c4cnc(N)nc4C(F)F)nc(N4CCOC[C@@H]4C)n3)CC2)CC1,"Phosphatidylinositol 3-kinase catalytic subunit type 3 (PIK3C3, Homo sapiens, UniProt Q8NEB9)",KINOMEscan,,1 µM,,remaining binding,29%
O=c1nc(SCc2cc(F)cc(C(F)(F)F)c2)nc(SCc2ccc3nc(Cl)ccc3c2)[nH]1,TOP2B,decatenation,,15.6 µM,,mean decatenated DNA,51.9%
CC[C@@H](C)[C@@H](NC(=O)[C@@H](Cc1ccc(O)cc1)NC(=O)[C@H]1CCCN1C(=O)[C@@H](CCCNC(=N)N)NC(=O)[C@H](N)Cc1c[nH]cn1)C(=O)N[C@H](C)C(=O)N[C@H](Cc1c[nH]cn1)C(=O)N[C@H](CCCNC(=N)N)C(=O)N[C@@H](C(=O)N[C@H](Cc1ccc(O)cc1)C(=O)N[C@H](CO)C(=O)N[C@H](Cc1ccccc1)C(N)=O)C(C)C,"Transferrin receptor protein 1 (Tfrc, Mus musculus, UniProt Q62351)",flow cytometry,RAW264.7,"24 h, pH 6, replicate 3, unit not given",baseline: 0 h,surface TFRC expression,0.927
O=C(O)c1ccc(Nc2ncc3c(n2)-c2ccc(Cl)cc2C(c2c(F)cccc2F)=NC3)cc1,MSK1(h),kinase activity,,1 µM,,remaining activity,93%
O=C(NC1CCC1)c1ccc2nc(-c3cccc(NS(=O)(=O)NCCN4CCCCC4)c3)cn2c1,"Cyclin-dependent kinase-like 5 (CDKL5, Homo sapiens, UniProt O76039)",enzyme activity,,10 µM,,remaining activity,100%
Oc1ccc([C@@H]2c3c(O)cc(O)cc3[C@@H]3c4c(cc(O)c5c4[C@@H]2[C@H](c2ccc(O)cc2)[C@H]5c2cc(O)cc4c2[C@@H](c2cc(O)cc(O)c2)[C@H](c2ccc(O)cc2)O4)O[C@H]3c2ccc(O)cc2)cc1,"Alpha-amylase 1A (AMY1A, Homo sapiens, UniProt P0DUB6)",enzyme activity,,10 µM,,Vmax,555 ± 194 µmol/min
COc1ccc(Cl)cc1N1CCN(Cc2cccnc2Oc2ccc(-c3c(C)c(=O)[nH]c(=O)n3C)c(C)c2)CC1,ADRA2C,"binding, radioligand binding",,together with: [3H]rauwolscine,baseline: Ki alpha2B over Ki alpha2C,selectivity ratio,2
Oc1ccc(/C=C/c2cc(O)cc(O)c2)cc1,"O-methyltransferase (Sorghum bicolor, UniProt A0A1B6PFV1)",,,together with: adenosine 1 mM,,cooperativity factor,3.46
Nc1nc(SCc2ccc(Cl)cc2)nn1S(=O)(=O)c1ccc([N+](=O)[O-])cc1,"Lysophospholipase-like protein 1 (Mus musculus, UniProt Q3UFF7)","enzyme activity, activator, gel-based ABPP",purified protein,"concentration not given, together with: FP-rhodamine",baseline: DMSO,probe labeling increase,2.4 fold
COc1cccc(N2C(=O)C=CC2=O)c1,UCHL1,"covalent, intact protein LC-MS",,12.5 µM,,labelling,8.75%
O=S(=O)(Nc1cc(-c2ncn[nH]2)ccc1F)c1cc(Cl)cc(Cl)c1O,malate dehydrogenase,"enzyme activity, inhibitor",,"40 µM, pH 7.0, 1% DMSO, aggregation counter-screen",,remaining activity,101%
COc1cc(-c2cc(C(C)=O)n3ccccc23)c(OC)cc1Cn1ccnc1,"Bromodomain-containing protein 4, BD1 (BRD4, Homo sapiens, UniProt O60885)",,,,,ΔTm,5.3 °C
O=C1NC(=O)C(c2ccccc2)(c2ccccc2)N1,Voltage-dependent P/Q-type calcium channel subunit alpha-1A,"ion current, antagonist",HEK293,10 µM,,inhibition,28%
CC(Cl)C(=O)NCc1ccccc1S(=O)(=O)N1CCOCC1 (centres unmarked),UCHL1,"covalent, intact protein LC-MS",,12.5 µM,,labelling,13.5%
C=CC(=O)N1CCC[C@@H](n2nc(-c3ccc(Oc4ccccc4)cc3)c3c(N)ncnc32)C1,"Ephrin type-A receptor 7 (EPHA7, Homo sapiens, UniProt Q15375)",,,0.1 µM,,remaining activity,92.3%
Cc1ccnc([18F])c1-c1cccc(N2C[C@H](N3CCN(C(=O)c4nccs4)CC3)CC2=O)c1,"Monoglyceride lipase (Macaca mulatta, UniProt H9ESL3)",PET Scatchard plot,"rhesus monkey, brain FCX",baseline,,Bmax,120 nmol/g
C[C@H]1O[C@H](O[C@H]2[C@H](O)[C@@H](O)[C@@H](O[C@H]3[C@H](O)[C@@H](O)C(O)O[C@@H]3CO)O[C@@H]2CO)[C@H](O)[C@@H](O)[C@@H]1N[C@H]1C=C(CO)[C@@H](O)[C@H](O)[C@H]1O (some centres unmarked),α-amylase isoenzymes,"native PAGE densitometry, measured: abnormal band",,equal to IC50,,band share,100%
Oc1ccccc1-c1n[nH]cc1-c1ccnc2ccccc12,"Histidine protein kinase NIK1 (NIK1, Candida albicans, UniProt Q5A599)","kinase binding, MIB/MS competition",Candida albicans lysate,1 µM,"baseline: DMSO, negative = stronger binding",log2 fold change,-0.05
N#CC(=Cc1ccc(OC(F)F)cc1)C(=O)N1CCCc2ccccc21,UCHL1,"covalent, intact protein LC-MS",,12.5 µM,,labelling,31.7%
Nc1ncnc2c1ncn2[C@@H]1O[C@H](COP(=O)(O)OP(=O)(O)NP(=O)(O)O)[C@@H](O)[C@H]1O,"Cell cycle histidine kinase CckA, CA domain (Caulobacter vibrioides, UniProt Q9X688)",ITC,,"12 °C, together with: c-di-GMP 100 µM",,-TΔS,-3.3 kcal/mol
CC(=O)N[C@@H](Cc1ccccc1Cl)C(=O)N1CCC[C@H]1C(=O)N1CCC[C@H]1C(=O)N1CCC[C@H]1C(=O)N1CCC[C@H]1C(=O)O,"Vasodilator-stimulated phosphoprotein, EVH1 domain (VASP, Homo sapiens, UniProt P50552)",fluorescence titration,,25 °C,,binding free energy,-6.64 kcal/mol
C=CC(=O)N1CCC(C(=O)N[C@H](C)c2ccc3c(c2)CCCC3)CC1,UCHL1,"covalent, intact protein LC-MS",,12.5 µM,,labelling,7.94%
Nc1nc2c(ncn2[C@@H]2O[C@H](COP(=O)(O)OP(=O)(O)OP(=O)(O)O)[C@@H](O)[C@H]2O)c(=O)[nH]1,"T1, RNA aptamer C48U, 5'-triphosphate, 2',3'-cyclic phosphate",ITC,,,,Kd,0.352 µM
CCCCNC(=O)C(C#N)=Cc1ccncc1,UCHL1,"covalent, intact protein LC-MS",,12.5 µM,,labelling,14.7%
Cc1nc(CSc2nc(SCc3ccc(C(C)C)cc3)nc(=O)[nH]2)cs1,TOP2B,decatenation,,"7.8 µM, replicate 2",,decatenated DNA,100%
Nc1ncnc2c1ncn2[C@@H]1O[C@H](COP(=O)(O)CP(=O)(O)OP(=O)(O)O)[C@@H](O)[C@H]1O,"P2X purinoceptor 1 (P2RX1, Homo sapiens, UniProt P51575, R139P)",calcium influx,,1 µM,baseline: ionomycin response,calcium influx,61.6% and 66.9% and 53.2%
Cn1ncc(S(=O)(=O)NCc2ccccc2SC(F)(F)F)c1C(=O)O,malate dehydrogenase,"enzyme activity, inhibitor",,"200 µM, pH 7.0, 1% DMSO, aggregation counter-screen",,remaining activity,96%
CC[C@@H]1[C@H](F)C(=O)N[C@@H]1COc1nccc2cc(C(N)=O)c(OC)cc12,"Serine/threonine-protein kinase 38-like (STK38L, Homo sapiens, UniProt Q9Y2H1)","ATP-site probe binding, ActivX profiling",THP-1 cell lysate,"0.01 mM, Lys2 site",,inhibition,2.6%
O=C(O)C1=CCNCC1,"BEST1 (Homo sapiens, UniProt O76090)",whole-cell patch clamp,HEK293 transiently expressing channel,"concentration not given, membrane potential 60 mV",,current density,35 pA/pF and 68.7 pA/pF and 72.4 pA/pF and 84.5 pA/pF and 24.5 pA/pF and 33.7 pA/pF
Nc1nc2c(ncn2[C@@H]2O[C@H](COP(=O)(O)O)[C@@H](O)[C@H]2O)c(=O)[nH]1,"GUK1 (Homo sapiens, UniProt Q16774)","enzyme activity, NADH-coupled",,"62.5 µM, together with: NaCl 50 mM",,reaction velocity,0.0541 µM/s and 0.0599 µM/s and 0.0674 µM/s
CC(C)[C@@H]1NC(=O)[C@H](CO)NC(=O)[C@H](CO)NC(=O)[C@H](CO)N(C)C(=O)[C@H](CC(=O)O)NC(=O)[C@H](CO)NC(=O)[C@H](Cc2ccccc2)NC(=O)CSC[C@@H](C(=O)NCC(N)=O)NC(=O)[C@H](CC(N)=O)NC(=O)[C@H](CCCNC(=N)N)NC(=O)[C@H](Cc2ccc(-c3ccccc3)cc2)NC(=O)[C@H](Cc2ccc(-c3ccccc3)cc2)NC(=O)[C@H](CC(N)=O)NC(=O)[C@@H]2CCCN2C1=O,"E3 ubiquitin-protein ligase Mdm2 (MDM2, Homo sapiens, UniProt Q00987)","inhibitor, TR-FRET",,together with: p53 peptide,,Hill coefficient,~1
CN(C(=O)n1cnc(-c2ccc[n+]([O-])c2)c1)C1CCCCC1,Faah,"enzyme activity, inhibitor","rat, brain","oral, 1 h",,ED50,0.096 mg/kg
C[S+](CC[C@H](N)C(=O)[O-])C[C@H]1O[C@@H](n2cnc3c(N)ncnc32)[C@H](O)[C@@H]1O (some centres unmarked),"Histone-lysine N-methyltransferase 2C (KMT2C, Homo sapiens, UniProt Q8NEZ4)","substrate, enzyme-coupled methylation",,together with: H3 peptide 400 µM,,apparent Km,15 ± 1.8 µM
N#Cc1cnn(C(=O)N2CCN(Cc3ccc(OCc4ccccc4)cc3)CC2)c1,Faah,inhibitor,,"5 nM, pH 9, 25 °C",,time to maximal inhibition,1 h
CC(Oc1ccccc1)C(=O)NCc1ccccn1 (centres unmarked),"Leucine-rich repeat serine/threonine-protein kinase 2, WD40 domain (LRRK2, Homo sapiens, UniProt Q5S007)","binding, affinity selection mass spectrometry",,,baseline: other proteins in batch,fold enrichment,2.06
CC(C)(CC(=O)Nc1scc(C2CC2)c1C(=O)O)c1ccc(F)cc1,malate dehydrogenase,"enzyme activity, inhibitor",,"200 µM, pH 7.0, 1% DMSO, aggregation counter-screen",,remaining activity,76%
COc1cc2c(cc1OC)C(=O)C(CC1CCN(Cc3ccccc3)CC1)C2 (centres unmarked),Voltage-dependent P/Q-type calcium channel subunit alpha-1A,"ion current, antagonist, automated patch clamp",,,,IC30,16.3 µM
C#CCCC1(CC[C@H](NC(=O)NCCCCCCNC(=O)NCCNC(=O)COc2cccc([C@@H](CCc3ccc(OC)c(OC)c3)OC(=O)[C@@H]3CCCCN3C(=O)C(=O)C(C)(C)CC)c2)C(N)=O)N=N1.O=C(O)C(F)(F)F,"Peptidyl-prolyl cis-trans isomerase FKBP1A (FKBP1A, Homo sapiens, UniProt P62942)","photoaffinity labeling, in-gel fluorescence, measured: Alexa Fluor 647 click label",,"0.08 µM, UV irradiation 365 nm",higher = more labeling,probe labeling fluorescence,4420 a.u.
Cc1cc(Oc2ncccc2CN2CCN(c3ccc(O)cc3)CC2)ccc1-c1c(C)c(=O)[nH]c(=O)n1C,ADRA2C,"binding, radioligand binding",,together with: [3H]rauwolscine,baseline: Ki alpha2B over Ki alpha2C,selectivity ratio,3
COc1cc(C)[nH]c(=O)c1CN1CCc2c(Cl)cc([C@H](OC)C3COC3)c(Cl)c2C1=O,"Histone-lysine N-methyltransferase EZH2 (EZH2, Homo sapiens, UniProt Q15910)",,,,,residence time,780 min
Cc1c(CC(=O)NCCc2cccc(F)c2)c(=O)oc2cc(O)cc(O)c12,"Beta-1,4-galactosyltransferase 1 (B4GALT1, Homo sapiens, UniProt P15291)","enzyme activity, inhibitor, UDP-Glo",,10 µM,lower means stronger inhibition,luminescence,28900 a.u.
O=c1nc(SCc2cc(F)cc(C(F)(F)F)c2)nc(SCc2ccc3sccc3c2)[nH]1,TOP2B,decatenation,,31.25 µM,,mean decatenated DNA,0%
